Measurements pooled from the literature.
Protocols differ between the studies behind these lines. Values joined by “and” are separate records of one study, mostly repeats; a detail may differ. Numbers after ± are the reported error. In brackets after ≈: the same amount, converted by molar mass.

For CCCCCCCCCCCCCCCC[N+](C)(C)CCCCCCCCCCCC[N+](C)(C)CCCCCCCCCCCCCCCC.[Br-].[Br-], the protection was 64.3 ± 4.5% (influenza A virus A/PR/8/34 (H1N1); concentration not given, post-treatment).
CC[C@H](C)[C@@H]1NC(=O)[C@@H]2CCCN2C(=O)[C@H](CC(C)C)NC(=O)[C@H](CC(C)C)NC(=O)CNC(=O)[C@@H](NC(=O)[C@@H](NC(=O)[C@H](CC(=O)O)NC(=O)CNC(=O)[C@@H](NC(=O)[C@H](C)NC(=O)CNC(=O)[C@H](CCCCN)NC(=O)[C@H](CC(C)C)NC(=O)[C@H](CC(C)C)NC(=O)[C@H](CCCCN)NC(=O)CNC(=O)[C@@H](NC(=O)[C@@H](N)CC(C)C)C(C)C)C(C)C)C(C)C)CSSC[C@@H](C(=O)O)NC1=O: “log2 fold change” -2.36 (RNA-seq, item: C5ar1 mRNA; mouse traumatic brain injury, frontal cortex and hippocampus; dose not given; baseline: TBI plus compound vs TBI).
With CN1CCN(C2(CNC3CCN(c4cccc(-c5cc6cc(F)ccc6[nH]5)c4)CC3)CCC2)CC1 the CC50 was 6.43 µM (U-251).
CC(C)(C)NCCc1c[nH]c2cccc(O)c12.CC(C)(C)NCCc1c[nH]c2cccc(O)c12.O=C(O)/C=C/C(=O)O — result for “head twitch count”: 8.5 ± 1.9 (C57BL/6J mice; subcutaneous, 3 mg/kg).
The inhibition of CC(CCCN(CCCl)CCCl)Nc1ccnc2cc(Cl)ccc12.O=C(O)c1cc2ccccc2c(Cc2c(O)c(C(=O)O)cc3ccccc23)c1O is reported as 10.3 ± 4.1% (West Nile virus; viral replication, Rluc reporter replicon; Vero WNV replicon cells; 50 µM, 24 h).
For COc1c(CCC[P+](c2ccccc2)(c2ccccc2)c2ccccc2)cc2c(c1OC)OCO2.[I-], the LC50 was -4.15 log M (RXF 393; SRB).
The MIC of CS(=O)(=O)Nc1ncn(-c2cc(F)c(COc3ccc(OS(=O)(=O)F)cc3)c(F)c2)n1 is reported as 0.03 µM (≈ 0.0144 µg/mL) (Mycobacterium tuberculosis; NIH_G13, drug-resistant, lineage 4).
CCCCCCCCCCCCCCCCCC[N+](C)(C)CCCCCCCCCC[N+](C)(C)CCCCCCCCCCCCCCCCCC.[Br-].[Br-]: “HA titre reduction” 4 log units (influenza A virus A/PR/8/34 (H1N1); concentration not given, pre-treatment).
CC(C)NCCc1c[nH]c2cccc(O)c12.O=C(O)/C=C/C(=O)O has a distance travelled of 2140 ± 234 cm (C57BL/6J mice; subcutaneous, 3 mg/kg, 30 min).
C=CCN1CC[C@]23c4c5ccc(O)c4O[C@H]2C(=O)CC[C@@]3(O)[C@H]1C5 — result for “maximum possible effect”: -9.64% and 0.812% and 3.46% and 4.7% and -10.1% and 1.43% (antinociception, hot plate; male ICR-CD1 mice; subcutaneous, 5 mg/kg, 15 min).
For CC(C)N1CCC(NC2CCN(c3cccc(-c4cc5cc(F)ccc5[nH]4)c3)CC2)CC1, the CC50 was 6.28 µM (NCI-H322M).
With C[C@H]1O[C@@H](O[C@H]2CC[C@@]3(C)[C@@H](CC[C@]4(C)[C@@H]3C=C[C@]35OC[C@@]6(CCC(C)(C)C[C@H]63)[C@@H](O)C[C@]54C)[C@]2(C)CO)[C@H](O)[C@@H](O[C@@H]2O[C@H](CO)[C@@H](O)[C@H](O)[C@H]2O)[C@H]1O the hepatic triglycerides was 0.217 mmol/g protein and 0.11 mmol/g protein and 0.237 mmol/g protein and 0.135 mmol/g protein and 0.212 mmol/g protein and 0.227 mmol/g protein (mouse, chronic-plus-binge ethanol, hepatic SIRT1 knockdown, liver; dose not given, high dose).
For C=CCNCCc1c[nH]c2cccc(O)c12.C=CCNCCc1c[nH]c2cccc(O)c12.O=C(O)/C=C/C(=O)O, the distance travelled was 2870 ± 235 cm (C57BL/6J mice; subcutaneous, 3 mg/kg, 30 min).
For CCCCC1(CCCC)CN(c2ccccc2)c2cc(SC)c(OCC(=O)N[C@@H](C(=O)NCC(=O)O)c3ccccc3)cc2S(=O)(=O)C1, the serum HDL-C was 48.9 mg/dL (item: HDL cholesterol; human, serum; 5 mg once daily, day 14).
With C[C@]12CC[C@H]3[C@@H](CC=C4CC(O)CC[C@@]43CO)[C@@H]1CCC2O (stereo partly drawn) the fold reduction was roughly 1.2 fold (item: ICAM1; rat, GAN diet-induced MASH, plasma, pooled; dose not given; baseline: vehicle).
For CCCCCCCCCCCCCCCC[N+](C)(C)Cc1ccc(C[N+](C)(C)CCCCCCCCCCCCCCCC)cc1.[Br-].[Br-], the protection was 73.8 ± 1.4% (influenza A virus A/PR/8/34 (H1N1); concentration not given, pre-treatment).
CCCNCCc1c[nH]c2cccc(O)c12.CCCNCCc1c[nH]c2cccc(O)c12.O=C(O)/C=C/C(=O)O: “head twitch count” 24.2 ± 3.3 (C57BL/6J mice; subcutaneous, 30 mg/kg).
CCCCCCCCCCCCCCCC[N+](C)(C)CCCCCCCCCC[N+](C)(C)CCCCCCCCCCCCCCCC.[Br-].[Br-]: “HA titre reduction” 3 log units (influenza A virus A/PR/8/34 (H1N1); concentration not given, co-treatment).
With COc1cc(CCC[P+](c2ccccc2)(c2ccccc2)c2ccccc2)c(OC)c2c1OCO2.[I-] the TGI was -4.36 log M (UO-31; SRB).
COc1ccc(-n2nc(C(C)=O)s/c2=N\N=C(/C)c2ccc(NC(C)=O)cc2)cc1 has a toxicity of 77.1% (WI-38; 0.156 µM).
O=c1ccn([C@@H]2O[C@](F)(CO)[C@@H](O)[C@H]2O)c(=O)[nH]1 — result for “normalized viral replication”: 0.49 and 0.76 and 0.64 (human respiratory syncytial virus; recombinant reporter virus; concentration not given, scale 0 to 100, with: adenosine 3.7 µM).
CS(=O)(=O)CCCn1c(Cn2c(=O)n(CC(F)(F)F)c3ccncc32)cc2cc(Cl)ccc21 — result for “LS mean viral load change”: -4.94 log10 copies/mL (respiratory syncytial virus; RT-qPCR; hospitalized infants 1-24 months, nasal swab; oral, 1-9 mg/kg daily, day 28, all doses combined; baseline: baseline).
CCCCCCCCCCCC[N+](C)(C)CCCCCC[N+](C)(C)CCCCCCCCCCCC.[Br-].[Br-]: “HA titre reduction” 2.5 ± 0.5 log units (influenza A virus A/PR/8/34 (H1N1); concentration not given, pre-treatment).
CC[C@H](C)[C@H](NC(=O)[C@H](C)NC(=O)[C@H](CCCCN)NC(=O)[C@H](CC(C)C)NC(=O)[C@H](C)NC(=O)[C@@H](NC(=O)[C@H](Cc1c[nH]cn1)NC(=O)[C@H](CC(C)C)NC(=O)[C@@H](NC(=O)[C@@H](NC(=O)[C@H](CCCCN)NC(=O)[C@H](C)NC(=O)[C@H](C)NC(=O)[C@H](CO)NC(=O)[C@H](CCCCN)NC(=O)[C@H](Cc1ccccc1)NC(=O)[C@@H](NC(=O)[C@H](CCCCN)NC(=O)[C@H](CC(C)C)NC(=O)[C@H](Cc1ccccc1)NC(=O)[C@H](CO)NC(=O)[C@H](CCCCN)NC(=O)[C@H](Cc1c[nH]c2ccccc12)NC(=O)[C@H](CCCCN)NC(C)=O)[C@@H](C)O)[C@@H](C)O)C(C)C)[C@@H](C)O)C(=O)N[C@@H](CO)C(=O)N[C@@H](CO)C(N)=O has an MBC90 of 64 µg/mL (≈ 21.8 µM) (Streptococcus pyogenes; erythromycin-sensitive; 21 strains).
For CCCCNCCc1c[nH]c2cccc(O)c12.O=C(O)/C=C/C(=O)O, “head twitch count” read 7.5 ± 1.6 (C57BL/6J mice; subcutaneous, 1 mg/kg).
For CN1CCN(S(=O)(=O)c2cc([N+](=O)[O-])ccc2N(CCOS(C)(=O)=O)CCOS(C)(=O)=O)CC1, “EFS delay (T-C)” read greater than 386 days (NSG mice, sample BJ PDX; intraperitoneal, 25 mg/kg weekly x3; baseline: vehicle).
Under “head twitch count”, O=C(O)/C=C/C(=O)O.Oc1cccc2[nH]cc(CCNC3CCCCC3)c12 is recorded as 5.8 ± 1.1 (C57BL/6J mice; subcutaneous, 10 mg/kg).
With CSc1cccc(CC(=O)N[C@H]2CCOC2=O)c1 the activation was 13% (ExpR2 (Pectobacterium carotovorum); cellulase activity, agonist; Pectobacterium carotovorum, single-ExpR2 strain; 200 µM, 4 h; baseline: OHHL).
CCCCCCCCCCCCCCCC[N+](C)(C)CCCCCC[N+](C)(C)CCCCCCCCCCCCCCCC.[Br-].[Br-] — result for “HA titre reduction”: 3 ± 1 log units (influenza A virus A/PR/8/34 (H1N1); concentration not given, pre-treatment).
CCNCCc1c[nH]c2cccc(O)c12.CCNCCc1c[nH]c2cccc(O)c12.O=C(O)CCC(=O)O — result for “head twitch response”: 7.3 ± 1.9 count/30 min (C57BL/6J mice; subcutaneous, 0.03 mg/kg).
